Results of several laboratories.
Numbered parts are unrelated; each lists some results of a single study. Positions count from the first letter of the parent shown.
Sequence of UniProt Q13153 (whole entry, looked up): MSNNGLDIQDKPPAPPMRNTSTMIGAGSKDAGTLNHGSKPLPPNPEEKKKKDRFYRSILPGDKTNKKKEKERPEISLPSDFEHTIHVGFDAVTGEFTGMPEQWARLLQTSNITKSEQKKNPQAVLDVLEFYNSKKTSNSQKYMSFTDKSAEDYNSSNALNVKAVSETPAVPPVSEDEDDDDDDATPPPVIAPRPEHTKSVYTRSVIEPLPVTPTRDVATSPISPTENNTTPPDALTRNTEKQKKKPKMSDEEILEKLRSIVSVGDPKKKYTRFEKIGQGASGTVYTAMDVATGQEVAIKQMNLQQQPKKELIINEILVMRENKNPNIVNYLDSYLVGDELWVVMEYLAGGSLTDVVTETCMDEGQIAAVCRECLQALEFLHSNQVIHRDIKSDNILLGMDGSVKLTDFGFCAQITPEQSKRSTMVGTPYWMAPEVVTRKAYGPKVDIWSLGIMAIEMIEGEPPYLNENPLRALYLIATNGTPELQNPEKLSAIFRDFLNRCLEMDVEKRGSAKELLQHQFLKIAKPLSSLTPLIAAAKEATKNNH
Sequence of UniProt P53671 (whole entry, looked up): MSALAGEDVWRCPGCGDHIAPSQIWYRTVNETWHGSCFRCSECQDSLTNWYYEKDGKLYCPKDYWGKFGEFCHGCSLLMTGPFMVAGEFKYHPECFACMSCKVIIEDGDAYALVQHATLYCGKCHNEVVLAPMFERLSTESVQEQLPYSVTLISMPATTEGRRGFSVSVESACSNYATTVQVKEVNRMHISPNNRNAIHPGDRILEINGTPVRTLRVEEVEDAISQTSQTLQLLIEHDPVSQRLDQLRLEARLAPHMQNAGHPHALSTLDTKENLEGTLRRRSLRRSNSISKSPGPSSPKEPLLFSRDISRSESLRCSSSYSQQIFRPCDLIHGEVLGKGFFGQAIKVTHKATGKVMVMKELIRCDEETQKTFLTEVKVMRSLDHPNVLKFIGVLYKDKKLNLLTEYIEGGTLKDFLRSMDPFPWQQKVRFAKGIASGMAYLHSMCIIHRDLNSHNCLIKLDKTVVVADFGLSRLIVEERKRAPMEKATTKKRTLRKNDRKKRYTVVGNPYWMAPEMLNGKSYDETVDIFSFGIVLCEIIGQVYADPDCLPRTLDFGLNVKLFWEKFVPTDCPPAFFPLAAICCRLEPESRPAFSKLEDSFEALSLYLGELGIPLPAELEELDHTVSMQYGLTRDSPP
Sequence of UniProt P16234 (whole entry, looked up): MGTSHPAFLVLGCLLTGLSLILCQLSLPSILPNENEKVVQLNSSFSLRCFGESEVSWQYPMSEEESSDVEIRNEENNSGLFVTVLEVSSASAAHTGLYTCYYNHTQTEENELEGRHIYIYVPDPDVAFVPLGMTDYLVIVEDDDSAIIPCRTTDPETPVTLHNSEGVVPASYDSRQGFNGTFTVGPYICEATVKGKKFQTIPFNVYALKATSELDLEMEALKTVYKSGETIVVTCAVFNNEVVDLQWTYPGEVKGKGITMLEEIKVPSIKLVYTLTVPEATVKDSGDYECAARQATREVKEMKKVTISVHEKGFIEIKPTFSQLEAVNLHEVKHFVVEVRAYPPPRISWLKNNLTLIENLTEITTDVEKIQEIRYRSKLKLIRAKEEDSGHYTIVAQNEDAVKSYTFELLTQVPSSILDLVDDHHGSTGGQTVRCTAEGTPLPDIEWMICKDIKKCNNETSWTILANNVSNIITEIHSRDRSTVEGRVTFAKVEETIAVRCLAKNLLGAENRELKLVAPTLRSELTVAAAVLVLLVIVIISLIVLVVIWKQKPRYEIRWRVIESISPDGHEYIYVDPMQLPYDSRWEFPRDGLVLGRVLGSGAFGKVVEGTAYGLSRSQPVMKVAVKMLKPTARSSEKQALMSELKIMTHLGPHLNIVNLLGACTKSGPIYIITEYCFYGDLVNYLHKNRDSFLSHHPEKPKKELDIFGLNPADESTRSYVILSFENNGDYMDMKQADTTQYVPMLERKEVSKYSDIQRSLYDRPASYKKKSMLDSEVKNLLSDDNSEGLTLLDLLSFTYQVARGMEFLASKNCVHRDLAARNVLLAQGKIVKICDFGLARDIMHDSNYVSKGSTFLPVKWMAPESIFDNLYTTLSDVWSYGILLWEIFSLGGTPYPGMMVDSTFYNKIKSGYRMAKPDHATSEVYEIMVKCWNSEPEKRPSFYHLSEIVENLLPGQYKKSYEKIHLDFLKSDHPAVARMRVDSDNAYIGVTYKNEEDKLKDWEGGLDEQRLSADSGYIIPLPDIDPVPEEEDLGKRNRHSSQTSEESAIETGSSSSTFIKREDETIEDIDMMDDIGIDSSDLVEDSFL

Series 1 — target: ATF3, bZIP domain (human); method: DHFR protein complementation; sample: yeast; relative to: wild-type JUN-FOS pair; direction: higher = stronger binding
Notes: single substitutions, most at no-binding floor
Starting sequence: JUN, bZIP domain (human); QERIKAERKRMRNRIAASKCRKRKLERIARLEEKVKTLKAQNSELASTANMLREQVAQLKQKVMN; partner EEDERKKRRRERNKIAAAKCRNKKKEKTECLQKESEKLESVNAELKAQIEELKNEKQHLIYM
Substitution | binding fitness [natural log]
E33T | -0.259
A29I | -0.256
K39I | -0.403
N42K | -0.456
R30T | 0.0128
A29G | -0.215
Q41R | -0.247
K36Q | -0.137

Series 2 — effect on: cell-free assay; method: competition with immobilised ligand; tested at: 1 µM
Structure (SMILES): CCCOc1ccc([C@H]2[C@H](C(=O)O)[C@@H](c3ccc4c(c3)OCO4)CN2CC(=O)Nc2c(CC)cccc2CC)cc1
target | remaining binding
PDGFRA (Homo sapiens, UniProt P16234) | 80%
LIM domain kinase 2 (LIMK2, Homo sapiens, UniProt P53671) | 100%
PAK1 (Homo sapiens, UniProt Q13153) | 89%

Series 3 — method: RNA Bind-n-Seq; form: RNA; sample: in vitro; tested at: 15 pmol; notes: 4-mer, random 30-nt RNA, single round; together with: 3 µM DMDA-PatA, 2 mM AMP-PNP; relative to: input library; direction: higher = stronger binding
Target: Eukaryotic initiation factor 4A-I (EIF4A1, Homo sapiens, UniProt P60842, residues 1-406, full length assumed)
Sequence of UniProt P60842 (whole entry, looked up): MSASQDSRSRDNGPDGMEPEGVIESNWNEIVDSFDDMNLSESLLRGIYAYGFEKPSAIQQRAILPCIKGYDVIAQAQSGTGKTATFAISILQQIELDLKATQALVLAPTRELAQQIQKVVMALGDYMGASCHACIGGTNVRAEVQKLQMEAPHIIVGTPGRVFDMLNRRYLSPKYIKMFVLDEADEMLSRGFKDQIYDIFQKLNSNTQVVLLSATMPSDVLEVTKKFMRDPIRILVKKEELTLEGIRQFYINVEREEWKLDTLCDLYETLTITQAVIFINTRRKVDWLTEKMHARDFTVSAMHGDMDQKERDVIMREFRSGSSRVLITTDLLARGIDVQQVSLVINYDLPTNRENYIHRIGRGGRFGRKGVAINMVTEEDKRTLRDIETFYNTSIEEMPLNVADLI
Oligonucleotide | 4-mer enrichment
GAUA | 1.04 fold
GUAA | 1.48 fold
CGAA | 0.969 fold
CCCU | 0.482 fold
GCAA | 0.799 fold
CCAG | 0.508 fold
UGCU | 0.862 fold
AUCA | 0.504 fold

Single results of other studies
Rela Rel homology region: Transcription factor p65, Rel homology region (Rela, Mus musculus, UniProt Q04207, residues 1-314)
Sequence of UniProt Q04207 (1-314, looked up): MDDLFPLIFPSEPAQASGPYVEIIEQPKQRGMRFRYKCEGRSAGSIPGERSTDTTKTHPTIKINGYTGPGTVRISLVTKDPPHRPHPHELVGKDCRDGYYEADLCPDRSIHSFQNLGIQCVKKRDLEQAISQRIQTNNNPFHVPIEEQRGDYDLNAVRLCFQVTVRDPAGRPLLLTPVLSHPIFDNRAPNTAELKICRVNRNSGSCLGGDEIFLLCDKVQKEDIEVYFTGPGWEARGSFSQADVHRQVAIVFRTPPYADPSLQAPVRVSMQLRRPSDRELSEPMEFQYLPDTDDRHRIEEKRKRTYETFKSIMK
Substance | target or system | test | system | conditions | scale | quantity | value
GGAAATTCCC | Rela Rel homology region | surface plasmon resonance | double-stranded DNA, one strand shown, in vitro | 1 nM to 1 µM, 10-bp κB site, 1:1 kinetic fit, 10 °C | higher = slower dissociation | dissociation half-life | 45 s
C[C@H]1C[C@@H]2[C@H]([C@@H](O)C[C@@]3(C)[C@H]2CC[C@]3(O)C(=O)CO)[C@@]2(C)C=CC(=O)C=C12 | A-375 |  |  | 100 µM, 36 h |  | viability | 112%
CCOC(=O)[C@@H]1CSCC(=O)N[C@H](CC)C(=O)N(C)[C@@H](C)C(=O)N[C@@H](CC(C)C)C(=O)N2CCC[C@H]2C(=O)N(CC)CC(=O)N[C@H](CC(C)C)C(=O)N(C)[C@@H](C)C(=O)N[C@@H](CC(C)C)C(=O)N1C |  |  | hydrocarbon/water |  |  | logD | -0.199
GGAATTTCTT | Rela Rel homology region | surface plasmon resonance | double-stranded DNA, one strand shown, in vitro | 1 nM to 1 µM, 10-bp κB site, 1:1 kinetic fit, 10 °C | higher = slower dissociation | dissociation half-life | 3 s
